Results collected from several papers.
Every numbered part comes from another study and shows a few of its results, in no order.

Sample 1
Target: Sal-like protein 4, full length isoform A (SALL4, Homo sapiens, UniProt Q9UJQ4, residues 1-1053)
Chain of UniProt Q9UJQ4 (whole entry, looked up): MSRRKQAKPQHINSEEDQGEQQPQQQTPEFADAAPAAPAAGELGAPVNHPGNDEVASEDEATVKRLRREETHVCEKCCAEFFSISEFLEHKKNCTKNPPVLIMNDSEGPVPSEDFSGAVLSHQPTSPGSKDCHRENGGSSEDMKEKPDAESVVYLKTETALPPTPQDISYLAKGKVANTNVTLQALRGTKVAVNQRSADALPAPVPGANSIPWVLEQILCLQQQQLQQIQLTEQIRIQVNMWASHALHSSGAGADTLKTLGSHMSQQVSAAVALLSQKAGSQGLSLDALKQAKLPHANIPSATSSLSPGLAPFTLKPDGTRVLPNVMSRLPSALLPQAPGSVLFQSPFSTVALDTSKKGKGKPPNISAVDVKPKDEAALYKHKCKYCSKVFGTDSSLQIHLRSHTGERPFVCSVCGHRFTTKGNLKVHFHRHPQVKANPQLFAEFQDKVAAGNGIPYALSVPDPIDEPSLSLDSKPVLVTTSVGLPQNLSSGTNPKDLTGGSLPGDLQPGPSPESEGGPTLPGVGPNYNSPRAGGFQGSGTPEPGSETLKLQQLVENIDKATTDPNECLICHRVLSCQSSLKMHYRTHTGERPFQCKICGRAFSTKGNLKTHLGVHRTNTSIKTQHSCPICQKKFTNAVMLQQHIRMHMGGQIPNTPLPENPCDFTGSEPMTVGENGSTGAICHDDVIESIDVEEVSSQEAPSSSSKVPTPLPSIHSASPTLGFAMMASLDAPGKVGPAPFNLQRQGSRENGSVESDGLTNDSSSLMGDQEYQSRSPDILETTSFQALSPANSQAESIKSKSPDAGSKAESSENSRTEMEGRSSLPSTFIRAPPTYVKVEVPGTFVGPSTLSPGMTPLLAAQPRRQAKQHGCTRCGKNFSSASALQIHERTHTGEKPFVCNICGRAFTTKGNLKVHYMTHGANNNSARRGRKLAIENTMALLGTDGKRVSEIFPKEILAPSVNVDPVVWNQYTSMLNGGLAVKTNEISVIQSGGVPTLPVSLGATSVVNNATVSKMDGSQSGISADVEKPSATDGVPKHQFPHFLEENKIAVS
Method: universal PBM
Form: double-stranded DNA, one strand shown
Medium: in vitro
Tested at: 600 nM
Setting: 8-mer, flanks averaged, mean of replicates
Direction: higher = stronger binding
Strand	E-score
CTGGGACC	-0.251
GTACTGGA	0.0765
AGCGATGC	-0.273
GCAAGGCC	-0.273
TTTATAAA	0.375

Sample 2
Target: Prothrombin, mature alpha-thrombin (F2, Homo sapiens, UniProt P00734)
Method: aptamer microarray, sandwich
Form: DNA with 2'F-ANA
Medium: in vitro
Tested at: 200 nM
Setting: whole 15-mer aptamer, many near background
With: Cy3 exosite-II aptamer, 400 nM
Direction: higher = stronger binding
Strand	mean fluorescence intensity [a.u.]
GGTTGGTGTGGTTGG (2'F-ANA at 1 2 3 4 8 9 14)	72.2
GGTTGGTGTGGTTGG (2'F-ANA at 1 3 4 6 7 9 10 12 13 14)	49.8
GGTTGGTGTGGTTGG (2'F-ANA at 1 2 4 5 6 10 15)	119
GGTTGGTGTGGTTGG (2'F-ANA at 1 4 8 9 13 14)	72.6

Sample 3
Target: Histone acetyltransferase KAT6A, winged helix 2, GST fusion (KAT6A, Homo sapiens, UniProt Q92794, residues 85-181)
Method: protein binding microarray
Form: double-stranded DNA, one strand shown
Medium: in vitro
Tested at: not given
Setting: 8-mer, flanks averaged, mean of 2 arrays, mostly near background
Baseline: not given
Direction: higher = stronger binding
Residues (chain): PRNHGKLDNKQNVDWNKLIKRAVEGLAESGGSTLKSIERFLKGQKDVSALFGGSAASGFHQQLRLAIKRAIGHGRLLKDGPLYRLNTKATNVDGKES
Strand	E-score
GGCGACTA	0.00963
ACTGGAAC	-0.0888
ACGACAAC	-0.00146
AGGACCCT	-0.0848

Other studies, line by line
Substance	target	assay	test system	setting	how to read	endpoint	result
PhoQ, residues 284 288 289 292 302 303 SCKMEA	PhoP, residues 12 14 15 18 19 YHFSH (Escherichia coli, UniProt P23836)	Sort-seq, measured: YFP reporter	E. coli	PhoQ-PhoP variant library, with: 10 µM Mg2+	baseline: high Mg2+ state, higher = stronger signaling	fold induction	1.62

Some of these lines once more (other studies, line by line):
Substance	target	assay	test system	setting	how to read	endpoint	result
PhoQ, residues 284 288 289 292 302 303 SCKMEA	PhoP, residues 12 14 15 18 19 YHFSH (Escherichia coli, UniProt P23836)	Sort-seq, measured: YFP reporter	E. coli	PhoQ-PhoP variant library, with: 10 µM Mg2+	baseline: high Mg2+ state, higher = stronger signaling	fold induction	1.62
